Experimental data collected from several papers.
Each numbered part is a random draw from the data of one study; scales do not carry over between parts. Positions count from the first letter of the parent shown.

Set 1 — technique: protein-binding microarray; molecule type: double-stranded DNA, one strand shown; medium: in vitro; concentration: 2200 nM top; setting: 60-bp whole probe; with: salmon DNA 0.4 mg/ml; reference: random background probes; reading: higher = stronger binding; all sequences stand within: GCCTAGCAC … GTCTTGATTCGCTTGACGCTGCTG
Target: Interferon regulatory factor 7, full length, phosphomimetic (IRF7, Homo sapiens, UniProt Q92985, residues 1-503, S471D/S472D/S475D/S476D/S477D/S483D/S484D/S487D)
UniProt Q92985, sequence (whole entry, unmodified, looked up): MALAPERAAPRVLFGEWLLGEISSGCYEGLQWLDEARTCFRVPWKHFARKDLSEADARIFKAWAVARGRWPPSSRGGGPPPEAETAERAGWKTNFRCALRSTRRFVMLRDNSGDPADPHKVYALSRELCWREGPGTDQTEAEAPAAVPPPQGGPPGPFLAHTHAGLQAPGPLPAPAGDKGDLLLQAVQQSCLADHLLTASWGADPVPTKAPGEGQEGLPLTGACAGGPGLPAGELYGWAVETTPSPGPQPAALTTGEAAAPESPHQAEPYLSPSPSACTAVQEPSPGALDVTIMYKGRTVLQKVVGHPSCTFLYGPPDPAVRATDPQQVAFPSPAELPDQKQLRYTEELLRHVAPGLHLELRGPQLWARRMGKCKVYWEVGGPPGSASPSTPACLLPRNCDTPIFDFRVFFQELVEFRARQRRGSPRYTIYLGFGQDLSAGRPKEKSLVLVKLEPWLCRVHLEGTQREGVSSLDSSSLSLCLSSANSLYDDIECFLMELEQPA
For `GACGGTTTTGACTTTCGGGACGTGCTA`, “fitted relative affinity” read 4.18 z-score.
For `TTAGATTTTAGTTTCGATTAGTGCTAG`, “fitted relative affinity” read 6.97 z-score.
Under “fitted relative affinity”, `GGTGTTTTACAGGTTCTCTTTGTGCTA` is recorded as 0.846 z-score.
Under “fitted relative affinity”, `TCATCTCTGGACTGTGTGACTGTGCTA` is recorded as 1.01 z-score.
`GTCGGTCTCCTTATCCTGACGTGCTAG`: “fitted relative affinity” 1.88 z-score.
For `GTCGATCTCAGACTGGAGACGTGCTAG`, “fitted relative affinity” read 0.287 z-score.

Set 2 — target: CCNB2, cyclin fold, Cln2 fusion (human); technique: yeast growth competition, sequencing; medium: yeast; setting: weak parent motif; reference: not given; reading: higher = stronger binding
Starting sequence: CDC25A docking peptide (human); PPHRRRLLFACSP
For `L8R`, “normalised enrichment score” read 0.684.
`L8I`: “normalised enrichment score” 1.
For `F9I`, “normalised enrichment score” read 0.545.
`L7C` — result for “normalised enrichment score”: 0.654.

Set 3 — technique: protein binding microarray; molecule type: double-stranded DNA, one strand shown; medium: in vitro; concentration: not given; reference: not given; reading: higher = stronger binding
Target: Histone acetyltransferase KAT6A, both winged helices, GST fusion (KAT6A, Homo sapiens, UniProt Q92794, residues 1-181)
Setting: 8-mer, flanks averaged, mean of 2 arrays, mostly near background
Target sequence (chain): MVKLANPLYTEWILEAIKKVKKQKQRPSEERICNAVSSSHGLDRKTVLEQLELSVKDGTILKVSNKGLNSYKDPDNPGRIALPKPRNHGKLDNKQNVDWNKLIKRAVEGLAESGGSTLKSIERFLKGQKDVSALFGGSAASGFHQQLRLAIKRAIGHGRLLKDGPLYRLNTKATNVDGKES
The E-score of `AATCAGCC` is reported as -0.0159.
The E-score of `CGTTTGAC` is reported as 0.166.
The E-score of `ACCGCATC` is reported as 0.202.
With `TAGTCGGA` the E-score was 0.161.
`ACAATAGA` gave an E-score of -0.0981.
`ACCCCCGT` has an E-score of 0.102.
`GAGCCGAA` has an E-score of 0.00749.

Mixed results
`PhoQ, residues 284 288 289 292 302 303 NLALSC` has a fold induction of 2.24 (PhoP, residues 12 14 15 18 19 IFFTR (Escherichia coli, UniProt P23836); Sort-seq, refers to: YFP reporter; E. coli; PhoQ-PhoP variant library, with: 10 µM Mg2+; reference: high Mg2+ state, higher = stronger signaling).

Excerpt of the above (set 3):
With `TAGTCGGA` the E-score was 0.161.
The E-score of `ACCGCATC` is reported as 0.202.
The E-score of `CGTTTGAC` is reported as 0.166.
